Measurements collected from several papers.
Protocols differ between the studies behind these lines.
CDK19: Cyclin-dependent kinase 19 (CDK19, Homo sapiens, UniProt Q9BWU1)
CDK19 with cyclin C: Cyclin-dependent kinase 19, with cyclin C (CDK19, Homo sapiens, UniProt Q9BWU1)

`CN1CCN(Cc2ccc(-c3ccc(CO[C@H]4CCC[C@@H]4NC(=O)c4cc(-c5cnn(C)c5)cnc4N)cc3)cc2)CC1` has an inhibition of 1% (Cyclin-dependent kinase 19, inactive (CDK19, Homo sapiens, UniProt Q9BWU1); SelectScreen kinase profiling; 0.1 µM).
`Cc1cnc2nc1Nc1cccc(c1)COC/C=C/COCc1cc(ccc1OCCN1CCOCC1)N2` gave a remaining binding of 100% (CDK19; 0.1 µM; reference: DMSO control).
`CCN1CCN(Cc2ccc(NC(=O)c3ccc(C)c(NC(=O)c4cncc(-c5cccs5)c4)c3)cc2C(F)(F)F)CC1` gave a remaining binding of 1.2% (CDK19; KinomeScan; 1 µM).
For `CCn1cc(C(=O)O)c(=O)c2c(N)c(F)c(NC3CCCCC3)cc21`, the inhibition was 33.7% (CDK19 with cyclin C; kinase activity; 0.1 µM, together with: ATP at Km).
For `CNC(=O)C1CCN(c2cc(C)c(F)cc2NC(=O)c2ccc(-c3cc(O)ccc3C)c(C)c2)CC1`, the remaining binding was 100% (CDK19; KINOMEscan; 1 µM; reference: DMSO control).
For `CNS(=O)(=O)Nc1nccc(Cc2c(C)c3ccc(Oc4ncccc4F)cc3oc2=O)c1F`, the remaining binding was 100% (CDK19; KINOMEscan competition binding; 10 µM; reference: control).
With `CNC1C[S+]2CC[S+]3CC[S+](C1)[Ru-4]321([N]=C=S)[n]2c3ccc(OC)cc3c3c4c(c5cc(F)c[n+]1c5c32)C(=O)NC4=O` (centres unmarked) the remaining binding was 74% (CDK19; KinomeScan; 0.1 µM; reference: untreated).
`C=C1CCCCCCCCCC(CO)C1=O` (centres unmarked) gave a remaining binding of 100% (CDK19; cell-free assay, competition with immobilised ligand; 10 µM).
`CN1C[C@@H](c2c[nH]c3cc(Br)ccc23)NC[C@@H]1c1c[nH]c2cc(Br)ccc12` gave a remaining activity of 102% (CDK19 with cyclin C; enzyme activity, inhibitor; 10 µM).
The remaining activity of `CN1CCN(Cc2ccc(NC(=O)c3cccc(C#Cc4cnc(N)c5ncccc45)c3)cc2C(F)(F)F)CC1` is reported as 26% (CDK19; enzyme activity; 0.05 µM).
For `C=CC(=O)N1Cc2nc(-c3cc(-c4cc(Cl)cnc4Cl)c(F)cc3F)n(-c3ccncn3)c2C1`, the inhibition was 6.5% (CDK19 with cyclin C; kinome panel; 1 µM).
For `Cc1ccc(-c2c(/C=C(\C#N)C(=O)NC(C)C)n(CCCO)c3ncnc(N)c23)cc1`, the remaining binding was 100% (CDK19; cell-free assay, competition with immobilised ligand; 1 µM).
With `COc1cc(Nc2nccc(-c3cnn4nc(OC)ccc34)n2)cc(C(F)(F)F)c1` the remaining binding was 92% (CDK19; binding, competition with immobilised ligand; 1 µM).
With `Cc1ccc(C)c(-c2cc(NC(=O)c3cncc(Br)c3)[nH]n2)c1` the remaining binding was 29% (CDK19; KINOMEscan competition; 10 µM; lower = stronger binding).
